# Results pooled from the literature.
# Each line is one published result; not all experiments were run side by side. Values joined by “and” are separate records of one study, mostly repeats; a detail may differ. ± marks the error that the study gave.
SMILES,test,test system,setting,scale,measurement,value
CCCCCCCCCCCCCCCC(=O)OCC(CSC[C@H](N)C(=O)N[C@@H](CO)C(=O)N[C@@H](CCCCN)C(=O)N[C@@H](CCCCN)C(=O)N[C@@H](CCCCN)C(=O)N[C@@H](CCCCN)C(=O)NCCCCCC(=O)N[C@@H](CCCCN)C(=O)N[C@@H](CC(C)C)C(=O)N[C@H](C(=O)N[C@@H](Cc1ccccc1)C(=O)N[C@@H](Cc1ccccc1)C(=O)N[C@@H](Cc1ccc2ccccc2c1)C(=O)O)C(C)C)OC(=O)CCCCCCCCCCCCCCC (stereo partly drawn),,"APP/PS1 transgenic mouse, hippocampus","intrahippocampal, dose not given, unit not given",relative to: injected over adjacent side,Iba1 level,1.02 and 1.12 and 0.956 and 1.01 and 0.514
Cc1[nH]nc2c1N=C(c1ccccc1Cl)c1cnc(N3CCOCC3)cc1N2,,mouse sample BB TNBC PDX,"oral, 15 mg/kg, 120 h, 5 days per week",,tumour growth inhibition,94%
COc1ccccc1-c1ccncc1C(=O)Nc1nnc(OCc2ccc(Cl)cc2)s1,immunofluorescence,"MEFs, Mus musculus","10 µM, 24 h pretreatment, 0 h after irradiation, together with: ionising radiation 2 Gy",,RAD51 foci-positive nuclei,9.36% and 6.86% and 2.46%
COc1ccccc1-c1c[nH]c2ncc(-c3cncc(C(=O)N(C)C)c3)cc12,,"NSG mice, K562 xenograft","ip, 0.0268 mmol/kg once daily, 16 days",,tumour growth inhibition,40.3 ± 6%
COC1CN([C@H]2CC[C@H]([C@@]3(C)Oc4c(Cl)cc(C(=O)NCc5c(SC)cc(C)[nH]c5=O)c(C)c4O3)CC2)C1,"RNA-seq, refers to: LPAR1 mouse homolog","mouse, HT-1376 xenograft, whole blood",dose not given,relative to: vehicle,log2 fold change,0.872
CC(=O)[O-].O.O.O.O.[Co+2].[O-]c1ccc(Br)cc1C=NCCN1CCOCC1,FRAP,,80 µM,,ferric reducing power,19.5%
COCC1CN(C2CCN(c3cc(OC)c(Nc4ncc(Br)c(Nc5ccc6c(c5P(C)(C)=O)OCCO6)n4)cc3C)CC2)C1,RECIST 1.1,advanced EGFR-mutant NSCLC patients,90 mg once daily,,partial response,0%
O=S(=O)(NCc1ccncc1)c1ccc(C2CCCCC2)cc1,immunohistochemistry,"5XFAD mice male 1-year-old, hippocampus","ip, 0.3 mg/kg daily, 6 wk",relative to: vehicle,β-amyloid accumulation reduction,~37%
COc1c(Cl)cccc1Nc1c(-c2ccncc2C#C[C@@]2(C)CCCN2C(=O)/C=C/CN(C)C)[nH]c2c1C(=O)NCC2,,"NCI-H2073 EGFR SVD knock-in xenograft, BALB/c nude mice","25 mg/kg once daily, 21 days",,tumour growth inhibition,89.5%
COCCOCCOCCNC(=O)Cc1cc(CC(=O)N[C@H]2C[C@H]3C(=O)Nc4cc(OCCOCCOCCOC)cc(n4)C(=O)N4CCC[C@H]4C(=O)Nc4cc(OCCOCCOCCOC)cc(n4)C(=O)N4CCC[C@H]4C(=O)Nc4cc(OCCOCCOCCOC)cc(n4)C(=O)N3C2)cc(CC(=O)N[C@H]2C[C@H]3C(=O)Nc4cc(OCCOCCOCCOC)cc(n4)C(=O)N4CCC[C@H]4C(=O)Nc4cc(OCCOCCOCCOC)cc(n4)C(=O)N4CCC[C@H]4C(=O)Nc4cc(OCCOCCOCCOC)cc(n4)C(=O)N3C2)c1,"anion binding, ITC",water,"298 K, stoichiometry fixed at 1.00, together with: sodium chloride",,ΔH,10.1 ± 3.6 kJ mol^–1
NC[C@@H](C(=O)Nc1ccc(-c2cn[nH]c2)cc1)c1ccccc1,tonometry,"NZW rabbit, magnetic bead-induced ocular hypertension","ocular, 0.03%, 8 h",,IOP,33.7 mmHg
COc1ccc(C(=O)CCc2cc(C(CCc3ccc(O)cc3OC)c3ccc(O)cc3)c(O)cc2OC)cc1 (racemic),,human blood,"0.3 µM, together with: A23187",,LTB4 isomers level,349 ± 137 pg/mL
CC[C@H](C)[C@@H](C(=O)N[C@@H](CC(C)C)C(=O)N[C@@H](CO)C(=O)N[C@@H](CO)C(=O)N[C@H](C(=O)N[C@@H](CCC(=O)O)C(=O)N[C@H](C(=O)NCC(=O)N[C@@H](CO)C(=O)N[C@@H](CC(N)=O)C(=O)N[C@H](C(=O)N1C[C@H](O)C[C@H]1C(N)=O)[C@@H](C)O)C(C)C)[C@@H](C)O)N(C)C(=O)[C@H](C)NC(=O)CN(C)C(=O)[C@H](Cc1ccccc1)NC(=O)[C@H](CO)NC(=O)[C@H](CO)NC(=O)[C@H](CCCNC(=N)N)NC(=O)[C@H](CCC(N)=O)NC(=O)[C@H](CC(C)C)NC(=O)[C@H](Cc1ccccc1)NC(=O)[C@H](CCCC(=O)O)NC(=O)[C@H](C)NC(=O)[C@H](CC(C)C)NC(=O)[C@H](CCCNC(=N)N)NC(=O)[C@H](CCC(=O)O)NC(=O)[C@@H](NC(=O)[C@H](C)NC(=O)[C@@H]1CCCCNC(=O)C[C@H](NC(=O)[C@H](CCCNC(=N)N)NC(=O)CC[C@H](NC(=O)CCCCCCCCCCCCCCCCCCC(=O)O)C(=O)O)C(=O)NCC(=O)N[C@@H]([C@@H](C)O)C(=O)N[C@@H](C)C(=O)N[C@@H]([C@@H](C)O)C(=O)N1)[C@@H](C)O,,diet-induced obese rats,"subcutaneous, 15 nmol/kg every second day, day 20",,cumulative food intake,298 g/rat
Cc1c(C)c2cccnc2c2ncccc12.O=[N+]([O-])[O-].O=c1c(C=NN=C([S-])Nc2ccccc2)coc2ccccc12.[Cu+2],oxidative DNA cleavage,supercoiled pUC19 DNA,"100 µM, 30 min, together with: ascorbic acid 50 µM, DNA 40 µM",,supercoiled DNA form,0%
CCC(=O)N[C@@H](C)C(=O)OCC(=O)N[C@@H](C)C(=O)O,,water,"pH 4, 37 °C",,chain scission rate constant,0.0008 h⁻¹
Cc1cccc(C)c1CNc1cc(C(=O)N2CCC2)cn2c(C)c(C)nc12,,"rat, aspirin-induced ulcer","oral, 2 mg/kg, 4 h, together with: aspirin 150 mg/kg",,gastric lesion area,19.3 ± 6 mm
CN1CCC[C@]1(C)/C=C/S(=O)(=O)NC(=O)Nc1c2c(cc3c1CCC3)CCC2,,"human, whole blood ex vivo","12.5 mg twice daily, day 19, 108 h, multiple ascending dose, together with: LPS and ATP",,IL-18 inhibition,-59.3%
COc1cc(O)ccc1CCC(c1ccc(O)cc1)c1cc2c(c(C)c1O)OC(c1ccc(O)cc1)CC2 (mixture of isomers),,human blood,"3 µM, together with: A23187",,LTB4 level,1280 ± 377 pg/mL

# Excerpt of the above:
SMILES,test,test system,setting,scale,measurement,value
Cc1cccc(C)c1CNc1cc(C(=O)N2CCC2)cn2c(C)c(C)nc12,,"rat, aspirin-induced ulcer","oral, 2 mg/kg, 4 h, together with: aspirin 150 mg/kg",,gastric lesion area,19.3 ± 6 mm
